Measurements pooled from the literature.
Parts stem from different laboratories: compare values within a part only. Values joined by “and” are separate records of one study, mostly repeats; a detail may differ. ± gives the spread as reported.
UniProt O70423, sequence (whole entry, looked up): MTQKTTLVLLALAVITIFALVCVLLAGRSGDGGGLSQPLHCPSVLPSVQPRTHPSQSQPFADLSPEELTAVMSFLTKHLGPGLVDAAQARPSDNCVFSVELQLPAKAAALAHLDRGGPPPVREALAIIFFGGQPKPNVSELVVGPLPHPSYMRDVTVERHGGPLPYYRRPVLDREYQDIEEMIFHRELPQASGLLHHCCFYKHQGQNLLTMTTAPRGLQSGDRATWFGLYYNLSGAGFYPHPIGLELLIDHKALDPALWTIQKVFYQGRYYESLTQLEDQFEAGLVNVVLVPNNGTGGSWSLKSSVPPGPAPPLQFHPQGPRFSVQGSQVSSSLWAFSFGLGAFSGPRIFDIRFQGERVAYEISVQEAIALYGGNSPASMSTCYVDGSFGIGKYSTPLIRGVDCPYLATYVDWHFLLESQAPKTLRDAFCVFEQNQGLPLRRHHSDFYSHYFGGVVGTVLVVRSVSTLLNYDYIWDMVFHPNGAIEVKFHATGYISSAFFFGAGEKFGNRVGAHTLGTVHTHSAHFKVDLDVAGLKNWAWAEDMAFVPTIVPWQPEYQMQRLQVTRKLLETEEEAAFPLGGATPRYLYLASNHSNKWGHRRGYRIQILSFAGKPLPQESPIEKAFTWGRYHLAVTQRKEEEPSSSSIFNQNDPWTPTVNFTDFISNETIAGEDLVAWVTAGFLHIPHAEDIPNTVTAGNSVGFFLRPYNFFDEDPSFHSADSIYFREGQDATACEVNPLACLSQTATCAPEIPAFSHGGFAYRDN
UniProt P21397, sequence (whole entry, looked up): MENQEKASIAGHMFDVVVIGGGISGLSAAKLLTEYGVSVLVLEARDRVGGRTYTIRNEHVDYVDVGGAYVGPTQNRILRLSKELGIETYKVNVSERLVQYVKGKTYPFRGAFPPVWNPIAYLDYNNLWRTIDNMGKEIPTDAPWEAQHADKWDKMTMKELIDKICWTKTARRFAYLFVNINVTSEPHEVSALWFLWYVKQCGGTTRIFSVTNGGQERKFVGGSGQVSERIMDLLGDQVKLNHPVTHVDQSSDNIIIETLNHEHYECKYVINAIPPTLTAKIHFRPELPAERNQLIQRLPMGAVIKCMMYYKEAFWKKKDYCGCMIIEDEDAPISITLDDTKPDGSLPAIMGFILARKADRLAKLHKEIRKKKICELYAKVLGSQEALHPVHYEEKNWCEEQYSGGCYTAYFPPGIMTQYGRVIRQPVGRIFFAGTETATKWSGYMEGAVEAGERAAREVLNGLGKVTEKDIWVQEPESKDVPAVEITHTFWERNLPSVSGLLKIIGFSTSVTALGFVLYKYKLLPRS
UniProt P27338, sequence (whole entry, looked up): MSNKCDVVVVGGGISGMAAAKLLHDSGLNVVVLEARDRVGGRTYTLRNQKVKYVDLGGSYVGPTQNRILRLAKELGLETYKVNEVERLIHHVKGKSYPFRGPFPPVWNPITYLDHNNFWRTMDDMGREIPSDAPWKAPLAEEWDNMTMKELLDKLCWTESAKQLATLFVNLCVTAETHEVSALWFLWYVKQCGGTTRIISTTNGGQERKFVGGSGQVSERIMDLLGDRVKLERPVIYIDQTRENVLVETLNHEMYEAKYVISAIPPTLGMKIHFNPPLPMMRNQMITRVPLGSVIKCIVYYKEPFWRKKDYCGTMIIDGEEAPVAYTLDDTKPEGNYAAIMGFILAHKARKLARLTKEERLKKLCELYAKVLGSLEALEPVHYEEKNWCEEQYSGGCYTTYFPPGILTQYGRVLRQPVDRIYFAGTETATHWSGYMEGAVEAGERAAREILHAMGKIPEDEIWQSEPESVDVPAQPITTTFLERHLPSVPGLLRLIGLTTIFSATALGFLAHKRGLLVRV
UniProt O08590, sequence (whole entry, looked up): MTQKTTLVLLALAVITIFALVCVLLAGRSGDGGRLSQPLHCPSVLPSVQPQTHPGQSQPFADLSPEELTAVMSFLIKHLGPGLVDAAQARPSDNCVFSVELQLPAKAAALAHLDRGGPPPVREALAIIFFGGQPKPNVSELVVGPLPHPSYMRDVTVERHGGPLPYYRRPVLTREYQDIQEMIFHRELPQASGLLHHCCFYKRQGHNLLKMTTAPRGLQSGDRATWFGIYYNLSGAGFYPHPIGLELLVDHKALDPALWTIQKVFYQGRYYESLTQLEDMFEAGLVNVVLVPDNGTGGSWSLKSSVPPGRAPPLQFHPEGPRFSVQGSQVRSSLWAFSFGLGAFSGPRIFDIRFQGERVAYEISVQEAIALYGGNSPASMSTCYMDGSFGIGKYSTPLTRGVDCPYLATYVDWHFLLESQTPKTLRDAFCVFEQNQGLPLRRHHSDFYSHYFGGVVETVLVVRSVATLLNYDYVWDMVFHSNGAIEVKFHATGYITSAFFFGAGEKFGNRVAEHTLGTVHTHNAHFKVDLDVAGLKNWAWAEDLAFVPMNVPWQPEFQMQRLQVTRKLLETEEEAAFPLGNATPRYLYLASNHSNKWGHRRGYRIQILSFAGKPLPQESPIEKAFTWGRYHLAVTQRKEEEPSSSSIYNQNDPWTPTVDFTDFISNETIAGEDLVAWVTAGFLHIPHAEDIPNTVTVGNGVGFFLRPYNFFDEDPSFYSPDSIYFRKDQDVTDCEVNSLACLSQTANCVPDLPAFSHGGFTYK
UniProt P49761, sequence (whole entry, looked up): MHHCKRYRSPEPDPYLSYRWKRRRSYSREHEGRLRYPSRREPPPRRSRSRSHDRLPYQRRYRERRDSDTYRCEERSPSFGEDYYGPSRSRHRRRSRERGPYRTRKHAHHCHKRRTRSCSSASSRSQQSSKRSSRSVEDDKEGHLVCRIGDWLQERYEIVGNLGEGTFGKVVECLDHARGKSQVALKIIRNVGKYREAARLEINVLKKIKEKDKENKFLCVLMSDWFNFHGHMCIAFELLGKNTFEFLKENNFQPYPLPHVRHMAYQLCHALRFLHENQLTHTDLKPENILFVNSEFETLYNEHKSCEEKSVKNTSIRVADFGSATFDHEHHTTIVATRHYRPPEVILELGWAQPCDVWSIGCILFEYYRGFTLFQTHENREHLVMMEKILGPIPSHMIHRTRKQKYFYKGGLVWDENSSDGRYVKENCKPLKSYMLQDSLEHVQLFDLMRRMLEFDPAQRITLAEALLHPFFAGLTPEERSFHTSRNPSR

Study 1
SMILES: C[C@@H]1CN(c2ccc(-c3cc(C(=O)NCCOCCOCCOCCOCCNC(=O)Cn4cc(-c5[nH]cc(C(=O)N[C@@H](CC(N)=O)c6ccc(F)c(Cl)c6)c5-c5ccc(Cl)cc5F)cn4)ccc3F)cc2NC(=O)c2c[nH]c(=O)cc2C(F)(F)F)C[C@H](C)N1C
Effect on: thermal unfolding
Method: differential scanning fluorimetry
Tested at: 5.5 µM
Reading: higher = more unfolded
WDR5: WD repeat-containing protein 5 (WDR5, Homo sapiens, UniProt P61964)
DCAF1: DDB1- and CUL4-associated factor 1 (DCAF1, Homo sapiens, UniProt Q9Y4B6)
UniProt Q9Y4B6, sequence (whole entry, looked up): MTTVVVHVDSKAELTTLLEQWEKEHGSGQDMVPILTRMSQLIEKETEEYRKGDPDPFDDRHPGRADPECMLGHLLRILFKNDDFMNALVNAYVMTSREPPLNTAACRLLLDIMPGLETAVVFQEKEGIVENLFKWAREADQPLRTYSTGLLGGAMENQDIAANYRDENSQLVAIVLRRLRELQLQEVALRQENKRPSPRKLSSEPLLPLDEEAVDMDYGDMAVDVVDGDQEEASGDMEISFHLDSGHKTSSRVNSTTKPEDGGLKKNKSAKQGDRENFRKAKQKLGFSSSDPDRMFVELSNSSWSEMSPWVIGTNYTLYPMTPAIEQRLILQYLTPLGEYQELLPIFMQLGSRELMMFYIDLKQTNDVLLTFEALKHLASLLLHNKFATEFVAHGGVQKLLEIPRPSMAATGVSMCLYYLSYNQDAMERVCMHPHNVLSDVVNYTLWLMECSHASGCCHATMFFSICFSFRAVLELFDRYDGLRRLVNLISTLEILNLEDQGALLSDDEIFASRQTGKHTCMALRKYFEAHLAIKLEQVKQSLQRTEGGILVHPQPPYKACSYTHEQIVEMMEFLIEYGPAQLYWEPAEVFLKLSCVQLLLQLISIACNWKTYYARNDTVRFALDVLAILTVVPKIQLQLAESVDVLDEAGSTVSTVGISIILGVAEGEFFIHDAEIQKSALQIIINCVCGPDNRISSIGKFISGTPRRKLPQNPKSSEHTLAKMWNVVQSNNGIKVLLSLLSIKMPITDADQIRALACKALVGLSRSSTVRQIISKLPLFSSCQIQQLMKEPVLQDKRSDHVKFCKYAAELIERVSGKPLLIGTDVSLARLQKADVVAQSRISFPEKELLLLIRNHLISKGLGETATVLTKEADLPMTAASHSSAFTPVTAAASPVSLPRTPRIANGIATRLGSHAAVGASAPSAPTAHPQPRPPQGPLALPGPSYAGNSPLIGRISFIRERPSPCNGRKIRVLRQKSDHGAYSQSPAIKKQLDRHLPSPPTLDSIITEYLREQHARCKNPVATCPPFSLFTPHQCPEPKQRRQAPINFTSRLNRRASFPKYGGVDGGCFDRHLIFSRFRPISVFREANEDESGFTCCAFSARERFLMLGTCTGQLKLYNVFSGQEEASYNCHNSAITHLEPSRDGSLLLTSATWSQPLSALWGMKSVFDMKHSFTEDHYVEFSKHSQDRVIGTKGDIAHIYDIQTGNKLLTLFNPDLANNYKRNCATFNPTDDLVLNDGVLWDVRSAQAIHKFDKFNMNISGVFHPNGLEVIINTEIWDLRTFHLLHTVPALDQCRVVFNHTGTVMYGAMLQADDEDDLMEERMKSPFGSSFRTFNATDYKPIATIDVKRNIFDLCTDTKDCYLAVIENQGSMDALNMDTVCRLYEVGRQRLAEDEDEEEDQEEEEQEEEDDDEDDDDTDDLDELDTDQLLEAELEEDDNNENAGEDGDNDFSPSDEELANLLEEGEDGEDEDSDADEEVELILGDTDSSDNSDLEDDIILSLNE
It gave 6800 a.u. for “SYPRO Orange fluorescence” (WDR5; 68.41 °C).
The “SYPRO Orange fluorescence” was 31300 a.u. (WDR5; 82.41 °C).
For WDR5; 53.41 °C: “SYPRO Orange fluorescence” read 14300 a.u.
The “SYPRO Orange fluorescence” was 13200 a.u. (WDR5; 55.61 °C).
It gave 14900 a.u. for “SYPRO Orange fluorescence” (WDR5; 28 °C).
It gave 9460 a.u. for “SYPRO Orange fluorescence” (WDR5; 61.61 °C).
For DCAF1; 57.41 °C: “SYPRO Orange fluorescence” read 26400 a.u.
DCAF1; 28 °C — “SYPRO Orange fluorescence”: 7830 a.u.
WDR5; 43.2 °C — “SYPRO Orange fluorescence”: 14400 a.u.
The “SYPRO Orange fluorescence” was 38500 a.u. (WDR5; 84.61 °C).
For WDR5; 34.6 °C: “SYPRO Orange fluorescence” read 14300 a.u.

Study 2
Compound: COCC1CC2C(CCC3(C)C(O)CCC23)c2ccc(O)cc21 (centres unmarked)
Method: DNA microarray
Tested at: concentration not given
Reference: untreated cells
PANC-1; item: GADD45A; lower dose arm — “log2 fold change”: -0.108.
It gave 1.44 for “log2 fold change” (PANC-1; item: IL28A; lower dose arm).
For SK-OV-3; item: MCM6; lower dose arm: “log2 fold change” read -0.127.
For PANC-1; item: GAPDH; lower dose arm: “log2 fold change” read 0.443 and 0.424 and 0.486 and 0.428 and 0.502.
For A549; item: DNER: “log2 fold change” read 5.71.
The “log2 fold change” was -1.18 (PANC-1; item: ORC1L).
PANC-1; item: CDCA8 — “log2 fold change”: -1.63.
For A549; item: MCM7: “log2 fold change” read -0.732.
PANC-1; item: KIF20A; higher dose arm — “log2 fold change”: -1.88 and -1.87 and -1.86 and -1.84.
The “log2 fold change” was 1.38 (PANC-1; item: CALR3; lower dose arm).
The “log2 fold change” was 3.29 (PANC-1; item: IL20RA; lower dose arm).
For PANC-1; item: MCM7: “log2 fold change” read -0.776.
A549; item: MCM10 — “log2 fold change”: -0.969.
For PANC-1; item: IL23R: “log2 fold change” read 6.23.

Study 3
SMILES: Cc1ccc(O)c(C)c1-c1cnc2[nH]c(-c3cnc(N4CCC(CN5CCN(c6ccc(NC7CCC(=O)NC7=O)cc6F)CC5)CC4)nc3)cc2c1C#N (centres unmarked)
Target: Membrane-associated tyrosine- and threonine-specific cdc2-inhibitory kinase (PKMYT1, Homo sapiens, UniProt Q99640)
UniProt Q99640, sequence (whole entry, looked up): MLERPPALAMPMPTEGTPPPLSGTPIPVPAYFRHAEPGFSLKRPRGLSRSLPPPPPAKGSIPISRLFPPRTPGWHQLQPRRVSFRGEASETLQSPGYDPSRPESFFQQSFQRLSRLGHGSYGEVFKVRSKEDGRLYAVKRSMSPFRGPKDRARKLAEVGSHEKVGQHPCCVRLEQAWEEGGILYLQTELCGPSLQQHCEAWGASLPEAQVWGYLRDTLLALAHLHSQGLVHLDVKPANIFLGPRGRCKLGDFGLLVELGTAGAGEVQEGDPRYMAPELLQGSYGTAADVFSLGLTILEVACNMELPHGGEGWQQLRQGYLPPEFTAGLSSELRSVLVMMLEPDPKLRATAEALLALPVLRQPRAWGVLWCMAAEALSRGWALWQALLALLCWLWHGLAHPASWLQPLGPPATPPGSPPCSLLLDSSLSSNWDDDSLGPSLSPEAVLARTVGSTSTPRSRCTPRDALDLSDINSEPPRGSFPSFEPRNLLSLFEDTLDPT
It gave 99.6% for inhibition (cell-free assay, inhibitor, TR-FRET; 0.3333 µM).
The inhibition was -10.4% (cell-free assay, inhibitor, TR-FRET; 51 pM).
For cell-free assay, inhibitor, TR-FRET; 460 pM: inhibition read 0.78%.
0.1111 µM — inhibition: 96.5%.
For cell-free assay, inhibitor, TR-FRET; 0.1111 µM: inhibition read 96.6%.
It gave 99.2% for inhibition (0.3333 µM).
0.03704 µM — inhibition: 89.3%.
For 0.01235 µM: inhibition read 75.1%.
The inhibition was -3.74% (0.000152 µM).

Study 4
SMILES: COc1ccc2c(c1)OC(O)(C(=O)O)C(=O)N2Cc1ccccc1 (centres unmarked)
It gave 8.5% and 9% and 10.5% for inhibition (Glycine max; fresh weight; soil surface spray, 150 g ai/ha, 21 days, pre-emergence crop safety).
For Arabidopsis thaliana; hypocotyl length; Col-0; 100 µg/mL, 7 days, seed germination, dark: inhibition read 51%.
For Arabidopsis thaliana; hypocotyl length; Col-0; 12.5 µg/mL, 7 days, seed germination, dark: inhibition read 12%.
The inhibition was 20.5% (Arabidopsis thaliana; root length; Col-0, seedlings; 25 µg/mL; reference: water control).
For Avena fatua; fresh weight; 150 g ai/ha, pre-emergence treatment: inhibition read 100%.
The inhibition was 9.88% (Arabidopsis thaliana; root length; Col-0, seedlings; 6.25 µg/mL; reference: water control).
The inhibition was 46.3% (Arabidopsis thaliana; root length; Col-0, seedlings; 50 µg/mL).
Amaranthus retroflexus; fresh weight; 150 g ai/ha, post-emergence treatment — inhibition: 59.4% and 53.8% and 55.8%.
For Arabidopsis thaliana; hypocotyl length; Col-0, seedlings; 100 µg/mL: inhibition read 51%.
It gave 22.7% for inhibition (Arabidopsis thaliana; hypocotyl length; Col-0; 25.0 µg/mL, 7 days, seed germination, dark).
It gave 20.5% for inhibition (Arabidopsis thaliana; root length; Col-0, seedlings; 25 µg/mL).
The inhibition was 12% (Arabidopsis thaliana; hypocotyl length; Col-0, seedlings; 12.5 µg/mL).
It gave 46.3% for inhibition (Arabidopsis thaliana; root length; Col-0, seedlings; 50 µg/mL; reference: water control).

Study 5
SMILES: CC[C@@]1(c2ccccc2)C2=C(CC(C)(C)CC2=O)Nc2n[nH]cc21
Tested at: 1 µM
It gave 97% for remaining binding (MYLK4 (Homo sapiens, UniProt Q86YV6); kinase binding, KINOMEscan; reference: DMSO control).
The remaining binding was 100% (PRKD1 (Homo sapiens, UniProt Q15139); binding, competition with immobilised ligand).
It gave 78% for remaining binding (Tyrosine-protein kinase ABL1, phosphorylated (ABL1, Homo sapiens, UniProt P00519, E255K); binding, competition with immobilised ligand).
The remaining binding was 100% (MKNK1 (Homo sapiens, UniProt Q9BUB5); kinase binding, KINOMEscan; reference: DMSO control).
The remaining binding was 100% (MAP2K4 (Homo sapiens, UniProt P45985); binding, competition with immobilised ligand).
It gave 100% for remaining binding (MAP3K20 (Homo sapiens, UniProt Q9NYL2); binding, competition with immobilised ligand).
STK32B (Homo sapiens, UniProt Q9NY57); binding, competition with immobilised ligand — remaining binding: 83%.
It gave 100% for remaining binding (MAPKAPK5 (Homo sapiens, UniProt Q8IW41); binding, competition with immobilised ligand).
FLT3 (Homo sapiens, UniProt P36888, D835H); binding, competition with immobilised ligand — remaining binding: 100%.
MAPK13 (Homo sapiens, UniProt O15264); binding, competition with immobilised ligand — remaining binding: 100%.
It gave 100% for remaining binding (TRPM6 (Homo sapiens, UniProt Q9BX84); binding, competition with immobilised ligand).
The remaining binding was 100% (FLT4 (Homo sapiens, UniProt P35916); binding, competition with immobilised ligand).
The remaining binding was 84% (STK38 (Homo sapiens, UniProt Q15208); kinase binding, KINOMEscan; reference: DMSO control).
It gave 91% for remaining binding (TLK1 (Homo sapiens, UniProt Q9UKI8); kinase binding, KINOMEscan; reference: DMSO control).
For DYRK1A (Homo sapiens, UniProt Q13627); kinase binding, KINOMEscan; reference: DMSO control: remaining binding read 95%.
It gave 79% for remaining binding (NTRK2 (Homo sapiens, UniProt Q16620); binding, competition with immobilised ligand).
For CDC42BPB (Homo sapiens, UniProt Q9Y5S2); kinase binding, KINOMEscan; reference: DMSO control: remaining binding read 100%.
The remaining binding was 100% (DAPK2 (Homo sapiens, UniProt Q9UIK4); kinase binding, KINOMEscan; reference: DMSO control).
The remaining binding was 100% (MAP3K14 (Homo sapiens, UniProt Q99558); binding, competition with immobilised ligand).
It gave 100% for remaining binding (PIK3CB (Homo sapiens, UniProt P42338); kinase binding, KINOMEscan; reference: DMSO control).
For MAP3K11 (Homo sapiens, UniProt Q16584); kinase binding, KINOMEscan; reference: DMSO control: remaining binding read 100%.
For MAPK9 (Homo sapiens, UniProt P45984); binding, competition with immobilised ligand: remaining binding read 100%.

Study 6
SMILES: CS(=O)(=O)c1ccc(OC/C(=C/F)CN)cc1.Cl
The inhibition was 99% (Amine oxidase [copper-containing] 3 (Mus musculus, UniProt O70423); mouse adipose tissue; 1 µM).
MAOA (Homo sapiens, UniProt P21397); enzyme activity, inhibitor; 0.1235 µM — inhibition: -0.859% and -0.0778% and 6.07% and 4.42% and -0.432%.
Amine oxidase [copper-containing] 3 (Mus musculus, UniProt O70423); mouse adipose tissue; 0.0014 µM — inhibition: 29.3%.
It gave 3.81% and 1.47% for inhibition (MAOB (Homo sapiens, UniProt P27338); enzyme activity, inhibitor; 10 µM).
It gave 99.2% for inhibition (Amine oxidase [copper-containing] 3 (Rattus norvegicus, UniProt O08590); rat adipose tissue; 0.1111 µM).
For Amine oxidase [copper-containing] 3 (Mus musculus, UniProt O70423); mouse adipose tissue; 0.1111 µM: inhibition read 98.7%.

Study 7
SMILES: CCN1/C(=C/C=C2\CCCC(/C=C/C3=[N+](CC)c4ccccc4C3(C)C)=C2NCCCCCCCCN2CCC(Nc3nc4ccccc4n3Cc3ccc(F)cc3)CC2)C(C)(C)c2ccccc21
Cell line: U-87 MG
Tested at: concentration not given
Reference: DMSO
For item: NRIP3 mRNA: “log2 fold change” read 0.971.
The “log2 fold change” was -1.46 (item: IRX3 mRNA).
item: AFTPH mRNA — “log2 fold change”: 1.12.
For item: ASPM mRNA: “log2 fold change” read -2.84.
It gave -1.04 for “log2 fold change” (item: PYCR3 mRNA).
It gave 1.24 for “log2 fold change” (item: MMP3 mRNA).
It gave -1.68 for “log2 fold change” (item: TRABD2A mRNA).
item: IMPA2 mRNA — “log2 fold change”: -1.83.
For item: MSX1 mRNA: “log2 fold change” read 1.48.
For item: NDE1 mRNA: “log2 fold change” read -0.925.
It gave 0.853 for “log2 fold change” (item: WDR45 mRNA).
For item: MTCL1 mRNA: “log2 fold change” read -0.979.
It gave -1.34 for “log2 fold change” (item: ANXA6 mRNA).
The “log2 fold change” was 1.23 (item: HSPA13 mRNA).
For item: KCND2 mRNA: “log2 fold change” read -3.81.
For item: PNLIPRP3 mRNA: “log2 fold change” read 3.77.

Study 8
SMILES: COc1cc(-c2nc3ccc(C(=O)NCCCN4CCN(c5cccc(C)c5C)CC4)cc3n2C2CCC2)cc(OC)c1OC
For ERBB2 (Homo sapiens, UniProt P04626); binding, competition with immobilised ligand; 1 µM: remaining binding read 98%.
The remaining binding was 85% (SBK1 (Homo sapiens, UniProt Q52WX2); binding, competition with immobilised ligand; 1 µM).
The remaining binding was 96% (CIT (Homo sapiens, UniProt O14578); binding, competition with immobilised ligand; 1 µM).
For LTK (Homo sapiens, UniProt P29376); binding, competition with immobilised ligand; 1 µM: remaining binding read 60%.
CLK4 (Homo sapiens, UniProt Q9HAZ1); binding, competition with immobilised ligand; 1 µM — remaining binding: 98%.
The remaining binding was 97% (CLK3 (Homo sapiens, UniProt P49761); binding, competition with immobilised ligand; 1 µM).
The remaining binding was 72% (MAP2K7 (Homo sapiens, UniProt O14733); binding, competition with immobilised ligand; 1 µM).
AAK1 (Homo sapiens, UniProt Q2M2I8); binding, competition with immobilised ligand; 1 µM — remaining binding: 99%.
RIOK3 (Homo sapiens, UniProt O14730); binding, competition with immobilised ligand; 1 µM — remaining binding: 96%.
It gave 100% for remaining binding (Aurora kinase C (AURKC, Homo sapiens, UniProt Q9UQB9); binding, competition with immobilised ligand; 1 µM).
LATS2 (Homo sapiens, UniProt Q9NRM7); binding, competition with immobilised ligand; 1 µM — remaining binding: 49%.
PRKAA2 (Homo sapiens, UniProt P54646); binding, competition with immobilised ligand; 1 µM — remaining binding: 86%.
The remaining binding was 95% (DYRK1A (Homo sapiens, UniProt Q13627); binding, competition with immobilised ligand; 1 µM).
The remaining binding was 95% (SBK3 (Homo sapiens, UniProt P0C264); binding, competition with immobilised ligand; 1 µM).
For FLT3 ITD F691L human; KINOMEscan; 1000 nM; reference: DMSO control: remaining binding read 100%.
The remaining binding was 98% (TTK (Homo sapiens, UniProt P33981); binding, competition with immobilised ligand; 1 µM).
The remaining binding was 69% (PIK3C3 (Homo sapiens, UniProt Q8NEB9); binding, competition with immobilised ligand; 1 µM).
For SLK (Homo sapiens, UniProt Q9H2G2); binding, competition with immobilised ligand; 1 µM: remaining binding read 25%.

Other studies, line by line
For `CCn1cnc2c(NCc3nc4ccc(F)c(F)c4[nH]3)nc(N3CCn4ncnc4C3)nc21`, the IC50 was 169 nM (Cyclin-dependent kinase 12, with cyclin K (CDK12, Homo sapiens, UniProt Q9NYV4); inhibitor, ADP-Glo kinase).
For `CC(C)/C=C(\C#N)C(=O)N1CCC[C@@H](n2nc(-c3ccc(Oc4ccccc4)cc3)c3c(N)ncnc32)C1`, the EC50 was 43.2 ± 7 nM (BTK (Homo sapiens, UniProt Q06187); target occupancy, PP-BODIPY competition labelling; Ramos; 1 h).
`CCN(CC)CC(=O)N1CCN(c2nc(NCc3nc4cc(Cl)c(Cl)cc4[nH]3)c3ncn(CC)c3n2)CC1`: “cyclin K level fold change” 0.064 (MDA-MB-231; degrader, DIA proteomics; 100 nM, 2 h; reference: DMSO).
The degradation of `CCn1cnc2c(NCc3nc4cc(F)c(F)cc4[nH]3)nc(N3CCn4ncnc4C3)nc21` is reported as 65.8% (MDA-MB-231; degrader, western blot, item: cyclin K; 50 nM, 24 h).
